Experimental data of several laboratories.
A part holds a random share of what one study measured. Positions count from the first letter of the parent shown.

Block 1
Target: CCNE2, cyclin fold, Cln2 fusion (human)
Technique: yeast growth competition, sequencing
Medium: yeast
Notes: strong parent motif
Relative to: not given
Direction: higher = stronger binding
Starting sequence: SCAPER docking peptide (human); SNARRSLNFGGST; partner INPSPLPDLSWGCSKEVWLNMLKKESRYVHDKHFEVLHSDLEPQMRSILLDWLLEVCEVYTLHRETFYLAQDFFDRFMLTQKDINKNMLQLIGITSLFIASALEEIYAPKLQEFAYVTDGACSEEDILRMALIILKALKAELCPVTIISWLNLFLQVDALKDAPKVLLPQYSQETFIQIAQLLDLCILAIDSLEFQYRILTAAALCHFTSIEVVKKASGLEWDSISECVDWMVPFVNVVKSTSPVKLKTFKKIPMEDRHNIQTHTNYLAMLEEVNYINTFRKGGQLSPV
| Change | normalised enrichment score |
| --- | --- |
| A3M | 1.28 |
| A3L | -0.419 |
| N8S | 1.49 |
| L7C | 0.736 |
| G11Y | 1.23 |

Block 2
Target: ABI1, truncated, D143A, DHFR fusion (Arabidopsis thaliana)
Technique: DHFR PCA, deep sequencing
Medium: yeast
Notes: methotrexate growth selection, single substitutions
Added: (+)-ABA 200 µM
Relative to: wild-type fitted maximum
Direction: higher = stronger binding
Starting sequence: PYL1, truncated, DHFR fusion (Arabidopsis thaliana); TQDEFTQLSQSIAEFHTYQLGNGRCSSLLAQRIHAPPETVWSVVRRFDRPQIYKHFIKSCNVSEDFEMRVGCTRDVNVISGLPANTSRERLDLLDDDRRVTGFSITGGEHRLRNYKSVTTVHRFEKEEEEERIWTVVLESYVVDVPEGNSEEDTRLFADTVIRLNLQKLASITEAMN; partner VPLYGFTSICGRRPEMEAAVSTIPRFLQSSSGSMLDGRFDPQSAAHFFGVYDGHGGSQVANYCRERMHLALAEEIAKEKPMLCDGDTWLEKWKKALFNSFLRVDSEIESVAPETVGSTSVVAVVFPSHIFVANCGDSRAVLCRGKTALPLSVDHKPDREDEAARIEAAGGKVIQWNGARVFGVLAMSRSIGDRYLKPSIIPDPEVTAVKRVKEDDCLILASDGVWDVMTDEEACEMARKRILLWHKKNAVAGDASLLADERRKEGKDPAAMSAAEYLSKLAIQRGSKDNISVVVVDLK
| Change | relative binding score [%] |
| --- | --- |
| A175H | 101 |
| T119S | 66.5 |
| F157Q | 7.37 |
| S27Q | 89.1 |
| F103K | -9.38 |
| C72P | 16.6 |

Block 3
Target: Histone acetyltransferase KAT6A, winged helix 2, GST fusion (KAT6A, Homo sapiens, UniProt Q92794, residues 85-181)
Technique: protein binding microarray
Molecule type: double-stranded DNA, one strand shown
Medium: in vitro
Tested at: not given
Notes: 8-mer, flanks averaged, mean of 2 arrays, mostly near background
Relative to: not given
Direction: higher = stronger binding
Construct (chain): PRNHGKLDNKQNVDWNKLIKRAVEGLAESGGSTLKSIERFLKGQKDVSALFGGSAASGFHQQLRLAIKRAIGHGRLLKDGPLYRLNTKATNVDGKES
| Strand | E-score |
| --- | --- |
| ACAGCGCC | 0.0483 |
| AAAAATTA | 0.174 |
| GAACTGAA | -0.103 |
| AAAGTTTC | 0.0584 |
| TGATGCCA | -0.133 |
| CTGACCCA | -0.261 |
| GGAAAAAA | 0.14 |

Other studies, line by line
| Molecule | target | assay | system | conditions | scale | measurement | result |
| --- | --- | --- | --- | --- | --- | --- | --- |
| PhoQ, residues 284 288 289 292 302 303 SACGEM | PhoP, residues 12 14 15 18 19 NQGLL (Escherichia coli, UniProt P23836) | Sort-seq, measured: YFP reporter | E. coli | PhoQ-PhoP variant library, added: 10 µM Mg2+ | relative to: high Mg2+ state, higher = stronger signaling | fold induction | 8.47 |

Some of these lines once more (block 3):
| Strand | E-score |
| --- | --- |
| TGATGCCA | -0.133 |
| GAACTGAA | -0.103 |
| AAAAATTA | 0.174 |
